Published values from different studies.
Each line is one published result; not all experiments were run side by side. ± marks the error that the study gave.

Cl.[2H]C([2H])([2H])CC(=O)c1cnc(NC(=O)C2CC2)cc1Nc1cccc(-c2ncn(C([2H])([2H])[2H])n2)c1OC
renal clearance (human, fasted; oral, 40 mg, every 12 h multiple dose, mean): 0.767 mL/min

Cn1cc(-c2cn3nccc3c(-c3cnn([C@]4(CC#N)C[C@@H](C#N)C4)c3)n2)cn1
renal clearance (human, urine; 30 mg once daily, day 10, multiple dose, geometric mean): 5 mL/min

C[C@H](O)c1cc(C(=O)N[C@@H](C)Cn2ccc(-c3ccc(C#N)c(Cl)c3)n2)n[nH]1
renal clearance (human, fasted, plasma; oral solution, 300 mg 14C-darolutamide, geometric mean): 7.23 mL/min

CC(=O)N(C)[C@H]1CCN(C(=O)c2cnc3c(c2)C[C@](C)(c2ccc(F)cc2)N3)C1
renal clearance (healthy male human, urine; oral, 15 mg once daily, 0-48 h steady state, geometric mean): 149 mL/min

NC[C@@]1(CC(=O)O)[C@@H]2CC[C@H]3C[C@@H]2[C@@H]1C3
renal clearance (human, severe renal impairment, urine; oral, 20 mg single dose): 30 ± 7.5 mL/min

Cc1cc(-c2nccc3c2ccn3CC(=O)Nc2ccc(-c3cnccn3)cn2)ccn1
renal clearance (human, plasma and urine; oral, 20 mg once daily, day 1, geometric mean): 3.87 mL/min

C[C@@H](Oc1ccc(S(C)(=O)=O)cc1C(=O)N1C[C@@H]2C[C@]2(c2cc(C(F)(F)F)on2)C1)C(F)(F)F
renal clearance (elderly humans, urine; oral, 50 mg once daily, 0-24 h, single dose, geometric mean): 6.28 mL/min

O=C(c1nc2n(n1)[C@H](c1ccccc1)C[C@@H]2F)C1CC1
renal clearance (human, fasted; 75 mg single dose): 0.182 mL/min

CC(C)n1c(C2CCNCC2)nc2c([N+](=O)[O-])c(Br)c(Br)cc21
renal clearance (human; oral, 100 mg single dose, median): 10.3 mL/min

C[C@@H](N)c1cc(Cl)ccc1Cn1c(=S)[nH]c(=O)c2[nH]ccc21
renal clearance (human, both sexes, matched healthy controls, urine and plasma; oral, 2.5 mg single dose, 0-24 h urine collection, geometric mean): 235 mL/min

CO[C@]1(C(=O)N[C@@H](C)c2ccc(-n3cc(F)cn3)nc2)CC[C@H](c2nc(C)cc(Nc3cc(C)[nH]n3)n2)CC1
renal clearance (human; oral): 6.3 mL/min

CC[C@H](C)[C@@H]([C@@H](CC(=O)N1CCC[C@H]1[C@H](OC)[C@@H](C)C(=O)N[C@@H](Cc1ccccc1)C(=O)NCCCO)OC)N(C)C(=O)[C@@H](NC(=O)[C@H](C(C)C)N(C)C)C(C)C
renal clearance (human): 0.602 mL/min

CN[C@@H]1COc2c(S(=O)(=O)NC(=O)Nc3c4c(cc5c3CCC5)CCC4)cnn2C1
renal clearance (human, fasted, urine; oral, 600 mg, 48 h): 7.37 mL/min

COc1cc(N2CCC(N3CCN(C)CC3)CC2)ccc1Nc1ncc(Cl)c(Nc2ccccc2P(C)(C)=O)n1
renal clearance (human; oral, 180 mg): 53.5 mL/min

Cc1ncc(CO)c(C(=O)O)c1O
renal clearance (human; baseline geometric mean): 182 mL/min

CN(C)C(=O)c1cc2cnc(Nc3ccc(N4CCNCC4)cn3)nc2n1C1CCCC1
renal clearance (human, mild renal impairment, plasma and urine; oral, 400 mg, geometric mean): 52.2 mL/min
